Values quoted from earlier work that unrelated publications cite.
Each line is one published result; not all experiments were run side by side. ± marks the error that the study gave.

Substance = CN1CCN(c2ccc(Nc3ncc4cc5n(c4n3)C3(CCCCC3)CNC5=O)nc2)CC1; target = OCT1; test = transport, inhibitor; IC50 = 0.604 µM
Substance = COc1ccc2c(c1OC)N=C(NC(=O)c1cccnc1)N1CCN=C21; target = phosphatidylinositol 4-phosphate 5-kinase type I beta; test = enzyme activity, inhibitor; setting = added: 10 µM ATP; IC50 = > 100 µM
Substance = CC1(C)CCC(C)(C)c2cc(C#Cc3ccc(C(=O)O)cc3)ccc21; target = CYP26A1; test = enzyme activity, inhibitor; setting = added: 9-cis-retinoic acid; IC50 = 8.3 ± 5.23 µM
Substance = O=P(O)(O)Oc1cc(OP(=O)(O)O)c(OP(=O)(O)O)cc1OP(=O)(O)O; target = InsP3 receptor; test = Ins(1,4,5)P3 binding; IC50 = ~10 µM
Substance = CC(=O)Nc1cccc(O)c1; target = lactate dehydrogenase (porcine heart); test = enzyme activity, noncompetitive inhibitor; IC50 = 78 ± 21 µM
Substance = Oc1cccc(-c2nc(N3CCOCC3)c3oc4ncccc4c3n2)c1; target = PI4KIIIα; test = enzyme activity, inhibitor; setting = added: 10 µM ATP; IC50 = > 100 µM
Substance = COc1ccc2c(c1)c(CC(=O)O)c(C)n2C(=O)c1ccc(Cl)cc1; target = PTGR2; test = enzyme activity, inhibitor; IC50 = ~200 µM
Substance = CN1CC(=O)N2[C@H](c3ccc4c(c3)OCO4)c3[nH]c4ccccc4c3C[C@@H]2C1=O; target = PDE3; test = inhibitor; IC50 = > 10 µM
Substance = FMRWRD; target = ACE; test = enzyme activity, inhibitor; test system = peptide; IC50 = 260 µM
Substance = CNC(=O)c1ccccc1Nc1cc(Nc2ccc(N3CCOCC3)cc2OC)ncc1C(F)(F)F; target = FAK; test = Tyr397 autophosphorylation; test system = breast carcinoma cells; IC50 = ~0.1 µM
Substance = NC[C@@H]1O[C@H](O[C@H]2[C@@H](O)[C@H](O[C@@H]3[C@@H](O)[C@H](N)C[C@H](N)[C@H]3O[C@H]3O[C@H](CO)[C@@H](O)[C@H](O)[C@H]3N)O[C@@H]2CO)[C@H](N)[C@@H](O)[C@@H]1O; target = rabbit ribosome; test = translation, inhibitor, item: firefly luciferase; test system = rabbit reticulocyte lysate; IC50 = 57 ± 4 µM
Substance = CN([C@@H](Cc1ccc(OS(=O)(=O)c2cccc3cnccc23)cc1)C(=O)N1CCN(c2ccccc2)CC1)S(=O)(=O)c1cccc2cnccc12; target = CaMKII; test = inhibitor; IC50 = > 2 µM
Substance = Cc1cc(C(C)Nc2ccccc2)c2oc(-c3ccncc3)cc(=O)c2c1 (stereo not shown); target = phosphatidylinositol 4-phosphate 5-kinase type I beta; test = enzyme activity, inhibitor; setting = added: 10 µM ATP; IC50 = > 100 µM
Substance = CCNC(=O)NC1CCCCC1; target = human soluble epoxide hydrolase; test = inhibitor; setting = added: PHOME substrate; IC50 = 7.5 ± 0.13 µM
Substance = CCCC(CCC)C(=O)O; target = HDAC4; test = inhibitor; IC50 = 1500 µM
Substance = N[C@@H](Cn1oc(=O)[nH]c1=O)C(=O)O; target = glutamate carboxypeptidase II; test = enzyme activity, radioenzymatic or HPLC; IC50 = 10 µM
Substance = CN[C@@H]1C[C@H]2O[C@@](C)([C@@H]1OC)n1c3ccccc3c3c4c(c5c6ccccc6n2c5c31)C(=O)N[C@H]4O; target = RAF; IC50 = 0.62 µM
Substance = CC(C)C[C@H](CC(=O)NO)C(=O)N[C@H](C(=O)N[C@@H](C)C(=O)NCCN)C(C)(C)C; target = ADAM17 (recombinant); test = enzyme activity, inhibitor; IC50 = < 0.1 µM
Substance = COc1ccc(-c2nnnn2-c2cc(OC)c(OC)c(OC)c2)cc1; target = tubulin; test = tubulin polymerisation, inhibitor; setting = added: tubulin 10 µM; IC50 = 2.5 ± 0.3 µM
Substance = COc1c(C)cc(NC(=O)c2nn(Cc3ccc(F)cc3)c3c2CN(C(=O)c2ccc[nH]2)C[C@]3(C)C(N)=O)cc1C; target = IDH1 R132G (human); test = enzyme activity, inhibitor; IC50 = 0.009 to 0.017 µM
Substance = Cc1cc([C@H](C)Nc2ccccc2)c2oc(N3CCOCC3)cc(=O)c2c1; target = ATM; test = kinase activity, inhibitor; setting = added: 10 µM ATP; IC50 = 35 µM
Substance = CC(C)[C@@H]1NC(=O)C(C)(C)NC(=O)c2csc(n2)CNC(=O)C[C@@H](/C=C/CCS)OC1=O; target = HDAC11; test = enzyme activity, inhibitor, cell-free; IC50 = 0.0023 µM
Substance = CC(C)n1nc(-c2ccc3oc(N)nc3c2)c2c(N)ncnc21; target = Plasmodium falciparum PI3K; test = enzyme activity, ELISA; IC50 = 0.056 µM
Substance = [Cu+2]; target = voltage-gated calcium channels; test = barium current, blocker; IC50 = 920 µM
Substance = O=C(CCCCCN1C(=O)c2cccc3cccc(c23)C1=O)NO; target = class I HDACs; test = inhibitor; IC50 = < 0.005 µM
Substance = O=P(O)(O)C(O)(Cc1cccc(-c2cccc3c2oc2ccccc23)c1)P(=O)(O)O; target = undecaprenyl pyrophosphate synthase; test = enzyme activity, inhibitor; IC50 = ~0.25 µM
Substance = CNC(=O)[C@H](Cc1c[nH]c2ccccc12)NC(=O)[C@@H](CC(=O)NO)CC(C)C; target = ADAM9 (recombinant soluble); test = enzyme activity, inhibitor; IC50 = 0.001 µM
Substance = APFPE; target = DPP-IV; test = enzyme activity; test system = peptide; IC50 = 49.5 ± 0.5 µM
Substance = Cc1ccc([N+](=O)[O-])cc1S(=O)(=O)N(C)/N=C/c1cnc2ccc(Br)cn12; target = mTORC1; test = enzyme activity, inhibitor; setting = added: 10 µM ATP; IC50 = 1 µM
Substance = CCC(CC)C(c1ccc(Nc2nc3ccccc3s2)cc1)n1cncn1 (stereo not shown); target = CYP26A1; test = enzyme activity, inhibitor; setting = added: 9-cis-retinoic acid; IC50 = 0.005 ± 0.0008 µM
Substance = C[C@@H](NCCN(C)C)[C@@H]1CC[C@@H]2[C@H]3CCc4cc(O)ccc4[C@@H]3CC[C@]21C; target = CatSper, human; test = channel activation, inhibitor; setting = added: progesterone and PGE1; IC50 = 5.7 µM
Substance = CC(C)[C@H]1c2ccc(F)cc2CC[C@@]1(CCN(C)CCCc1nc2ccccc2[nH]1)OC(=O)C1CC1; target = T-type calcium channel; test = inhibitor; test system = HEK293; IC50 = 6.8 µM
Substance = CC(C)(O)CC(=O)NCCn1ccc2ncnc(Nc3ccc(Oc4cccc(C(F)(F)F)c4)c(Cl)c3)c21; target = HER2, human recombinant; IC50 = 0.017 µM
Substance = CCCCCCCCCCCCc1cc(=O)c2ccccc2n1O; target = NDH-2; test = enzyme activity, inhibitor; IC50 = ~0.3 µM
Substance = O=C(Nc1ccc([N+](=O)[O-])cc1Cl)c1cc(Cl)ccc1O; target = STAT3; test = reporter gene, inhibitor; test system = HeLa; setting = 24 h; IC50 = 0.25 µM
Substance = CNC(=O)[C@@H](NC(=O)[C@H](CC(C)C)[C@H](O)C(=O)NO)C(C)(C)C; target = recombinant ADAM10; test = enzyme activity, inhibitor; IC50 = 0.078 µM
Substance = CCN(CCO)CCCC(C)Nc1ccnc2cc(Cl)ccc12 (stereo not shown); target = IKs channel; test = ion current, inhibitor; test system = CHO cells; setting = room temperature; IC50 = > 300 µM
